Assay results pooled from the literature.
A part holds a random share of what one study measured.
Chain of UniProt P10721 (whole entry, unmodified, looked up): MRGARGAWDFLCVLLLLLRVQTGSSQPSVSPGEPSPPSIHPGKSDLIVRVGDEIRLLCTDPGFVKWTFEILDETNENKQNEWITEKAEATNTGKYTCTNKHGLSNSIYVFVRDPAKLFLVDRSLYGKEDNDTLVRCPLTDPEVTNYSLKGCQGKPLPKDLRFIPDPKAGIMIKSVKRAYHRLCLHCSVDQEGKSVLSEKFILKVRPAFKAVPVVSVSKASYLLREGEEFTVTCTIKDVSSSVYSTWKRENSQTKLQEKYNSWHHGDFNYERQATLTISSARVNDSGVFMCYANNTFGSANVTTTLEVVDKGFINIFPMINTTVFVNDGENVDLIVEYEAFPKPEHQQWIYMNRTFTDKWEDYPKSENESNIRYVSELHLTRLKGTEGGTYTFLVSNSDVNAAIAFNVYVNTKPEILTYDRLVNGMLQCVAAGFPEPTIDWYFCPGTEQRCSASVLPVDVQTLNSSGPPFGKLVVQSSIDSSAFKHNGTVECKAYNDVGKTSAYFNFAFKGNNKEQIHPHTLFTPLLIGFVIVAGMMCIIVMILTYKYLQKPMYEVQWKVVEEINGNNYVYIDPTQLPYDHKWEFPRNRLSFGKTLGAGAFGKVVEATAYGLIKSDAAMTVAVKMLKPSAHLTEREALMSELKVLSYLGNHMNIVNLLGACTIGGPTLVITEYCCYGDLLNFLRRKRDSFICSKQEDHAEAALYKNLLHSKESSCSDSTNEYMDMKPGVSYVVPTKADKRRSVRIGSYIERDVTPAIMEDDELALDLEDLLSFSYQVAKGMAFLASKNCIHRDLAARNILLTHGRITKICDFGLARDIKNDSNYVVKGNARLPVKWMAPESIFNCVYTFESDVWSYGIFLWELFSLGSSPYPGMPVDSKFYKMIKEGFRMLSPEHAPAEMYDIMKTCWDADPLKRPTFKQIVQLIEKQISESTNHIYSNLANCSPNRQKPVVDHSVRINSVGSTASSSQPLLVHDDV
Chain of UniProt Q9HAZ1 (whole entry, looked up): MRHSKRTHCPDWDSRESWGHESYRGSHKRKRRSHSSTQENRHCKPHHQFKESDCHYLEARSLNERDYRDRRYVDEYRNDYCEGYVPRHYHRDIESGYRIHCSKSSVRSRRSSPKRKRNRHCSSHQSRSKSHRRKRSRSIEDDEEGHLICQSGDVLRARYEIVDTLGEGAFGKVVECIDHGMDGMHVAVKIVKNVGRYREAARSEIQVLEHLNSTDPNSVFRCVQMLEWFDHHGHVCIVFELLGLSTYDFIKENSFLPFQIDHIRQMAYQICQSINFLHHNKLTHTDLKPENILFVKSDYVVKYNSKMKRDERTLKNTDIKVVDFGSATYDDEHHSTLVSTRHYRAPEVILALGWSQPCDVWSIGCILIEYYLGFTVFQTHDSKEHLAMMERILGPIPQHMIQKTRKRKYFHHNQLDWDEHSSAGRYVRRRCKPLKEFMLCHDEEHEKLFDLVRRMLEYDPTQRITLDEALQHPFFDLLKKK
Chain of UniProt P08922 (whole entry, looked up): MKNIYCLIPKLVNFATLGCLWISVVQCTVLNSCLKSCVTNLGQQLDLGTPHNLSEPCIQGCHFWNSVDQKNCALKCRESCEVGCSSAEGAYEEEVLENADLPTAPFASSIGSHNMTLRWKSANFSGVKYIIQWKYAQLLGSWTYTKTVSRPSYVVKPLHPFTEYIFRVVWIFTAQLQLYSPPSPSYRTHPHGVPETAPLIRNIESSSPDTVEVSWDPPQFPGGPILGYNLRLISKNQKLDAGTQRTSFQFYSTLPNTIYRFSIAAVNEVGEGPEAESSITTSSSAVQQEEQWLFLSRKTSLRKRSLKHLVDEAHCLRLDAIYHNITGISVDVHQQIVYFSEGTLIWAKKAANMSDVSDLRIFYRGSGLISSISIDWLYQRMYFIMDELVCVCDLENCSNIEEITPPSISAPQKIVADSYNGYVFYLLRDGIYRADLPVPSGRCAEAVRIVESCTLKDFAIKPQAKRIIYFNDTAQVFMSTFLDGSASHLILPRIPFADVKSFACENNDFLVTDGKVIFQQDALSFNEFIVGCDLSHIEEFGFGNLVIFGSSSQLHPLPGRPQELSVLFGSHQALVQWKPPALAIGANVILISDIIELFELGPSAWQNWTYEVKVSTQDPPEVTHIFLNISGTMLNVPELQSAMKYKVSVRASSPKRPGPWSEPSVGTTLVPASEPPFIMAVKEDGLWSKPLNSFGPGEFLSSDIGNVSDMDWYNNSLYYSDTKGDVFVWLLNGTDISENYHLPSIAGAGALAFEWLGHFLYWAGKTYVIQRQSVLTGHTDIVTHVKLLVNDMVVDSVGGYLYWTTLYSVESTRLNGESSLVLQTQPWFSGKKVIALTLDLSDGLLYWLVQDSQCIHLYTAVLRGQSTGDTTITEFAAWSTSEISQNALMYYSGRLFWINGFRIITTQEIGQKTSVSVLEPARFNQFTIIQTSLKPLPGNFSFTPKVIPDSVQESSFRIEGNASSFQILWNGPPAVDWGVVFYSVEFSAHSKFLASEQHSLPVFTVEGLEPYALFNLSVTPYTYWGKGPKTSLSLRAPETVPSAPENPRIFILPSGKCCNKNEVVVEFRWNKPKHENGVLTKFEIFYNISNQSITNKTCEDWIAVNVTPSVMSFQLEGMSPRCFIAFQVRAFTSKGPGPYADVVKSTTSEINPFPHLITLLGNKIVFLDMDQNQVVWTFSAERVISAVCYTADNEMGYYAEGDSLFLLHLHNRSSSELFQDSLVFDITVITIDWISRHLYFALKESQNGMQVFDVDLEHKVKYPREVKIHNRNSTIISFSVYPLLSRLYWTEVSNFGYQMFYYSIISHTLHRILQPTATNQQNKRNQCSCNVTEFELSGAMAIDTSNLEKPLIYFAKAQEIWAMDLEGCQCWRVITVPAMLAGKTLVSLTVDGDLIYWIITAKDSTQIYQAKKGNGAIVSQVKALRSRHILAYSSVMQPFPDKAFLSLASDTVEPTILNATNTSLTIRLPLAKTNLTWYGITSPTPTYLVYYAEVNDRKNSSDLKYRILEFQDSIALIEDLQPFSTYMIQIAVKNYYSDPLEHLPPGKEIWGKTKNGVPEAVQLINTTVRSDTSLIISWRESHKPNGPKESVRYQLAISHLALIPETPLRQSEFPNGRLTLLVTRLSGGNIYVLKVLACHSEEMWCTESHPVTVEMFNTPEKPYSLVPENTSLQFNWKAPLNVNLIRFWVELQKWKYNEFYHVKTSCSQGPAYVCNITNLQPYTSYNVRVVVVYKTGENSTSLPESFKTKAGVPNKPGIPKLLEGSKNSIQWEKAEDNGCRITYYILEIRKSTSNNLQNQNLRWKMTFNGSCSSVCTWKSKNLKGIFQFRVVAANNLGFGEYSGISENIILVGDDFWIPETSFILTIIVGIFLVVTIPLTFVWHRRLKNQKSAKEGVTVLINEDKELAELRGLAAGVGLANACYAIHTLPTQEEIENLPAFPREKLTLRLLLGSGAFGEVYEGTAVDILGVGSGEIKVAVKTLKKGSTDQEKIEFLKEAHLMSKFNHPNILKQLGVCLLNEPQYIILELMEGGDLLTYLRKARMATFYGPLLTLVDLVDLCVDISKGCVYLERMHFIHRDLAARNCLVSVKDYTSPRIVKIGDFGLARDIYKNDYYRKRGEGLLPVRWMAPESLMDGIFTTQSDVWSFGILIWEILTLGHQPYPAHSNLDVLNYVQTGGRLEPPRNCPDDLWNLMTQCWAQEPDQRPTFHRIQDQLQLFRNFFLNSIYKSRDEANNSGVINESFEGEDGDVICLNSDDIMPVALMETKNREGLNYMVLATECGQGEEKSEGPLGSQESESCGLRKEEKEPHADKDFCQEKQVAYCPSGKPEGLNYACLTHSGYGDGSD

Study 1
SMILES: O=C(NC[C@@H]1[C@H]2CN(C(=O)OCc3cc(C(F)(F)F)cc(C(F)(F)F)c3)C[C@@H]12)c1ccc2[nH]nnc2c1
Observed: cell-free assay
Technique: competition with immobilised ligand
Tested at: 1 µM
Quantity: remaining binding
Mast/stem cell growth factor receptor Kit, autoinhibited (KIT, Homo sapiens, UniProt P10721): 90%
Serine/threonine-protein kinase Nek2 (NEK2, Homo sapiens, UniProt P51955): 100%
Mitogen-activated protein kinase 8 (MAPK8, Homo sapiens, UniProt P45983): 90%
Mitogen-activated protein kinase 1 (MAPK1, Homo sapiens, UniProt P28482): 100%
Mitogen-activated protein kinase kinase kinase 12 (MAP3K12, Homo sapiens, UniProt Q12852): 100%
Mast/stem cell growth factor receptor Kit (KIT, Homo sapiens, UniProt P10721, V559D): 88%
Serine/threonine-protein kinase ULK2 (ULK2, Homo sapiens, UniProt Q8IYT8): 97%

Study 2
Target: Calcium/calmodulin-dependent protein kinase type II subunit alpha (CAMK2A, Homo sapiens, UniProt Q9UQM7)
Chain of UniProt Q9UQM7 (whole entry, looked up): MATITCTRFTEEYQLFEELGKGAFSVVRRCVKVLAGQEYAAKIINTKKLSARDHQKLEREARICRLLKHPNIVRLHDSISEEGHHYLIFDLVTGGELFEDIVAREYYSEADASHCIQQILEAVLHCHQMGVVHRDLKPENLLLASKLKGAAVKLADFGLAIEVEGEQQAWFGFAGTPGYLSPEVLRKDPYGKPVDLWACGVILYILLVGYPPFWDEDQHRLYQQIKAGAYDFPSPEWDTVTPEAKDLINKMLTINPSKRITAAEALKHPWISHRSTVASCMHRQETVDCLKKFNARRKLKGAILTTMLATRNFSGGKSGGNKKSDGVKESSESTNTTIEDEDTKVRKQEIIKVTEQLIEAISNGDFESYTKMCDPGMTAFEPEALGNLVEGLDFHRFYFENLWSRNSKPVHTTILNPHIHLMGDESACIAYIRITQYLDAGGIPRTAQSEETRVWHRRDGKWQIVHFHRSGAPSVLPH
Observed: enzyme activity
Mode: inhibitor
Tested at: 10 µM
Quantity: inhibition
CC1=C[C@]23C(=O)[C@@H](C=C4COC(C)(C)O[C@H]4C2(O)[C@H]1O)[C@H]1[C@@H](C[C@H]3C)C1(C)C (stereo partly shown): 12%
O=C(O)C/C=C/CC(=O)O: -27%
O=c1cc(-c2ccccc2)oc2cccc(O)c12: 2%
NCCS(=O)(=O)O: 41%
CN(C)C: -13%
O=C(O[C@@H]1Cc2c(O)cc(O)cc2O[C@@H]1c1cc(O)c(=O)c2c(O)c(O)cc([C@H]3Oc4cc(O)cc(O)c4C[C@H]3OC(=O)c3cc(O)c(O)c(O)c3)c2c1)c1cc(O)c(O)c(O)c1: -142%
C[C@@H](O)[C@H]1C(=O)N2C(C(=O)O)=C(S[C@@H]3CN[C@H](C(=O)Nc4cccc(C(=O)O)c4)C3)[C@H](C)[C@H]12: -18%
C[C@@H]1O[C@@H](Oc2cc(O)c3c(=O)c(O)c(-c4ccc(O)c(O)c4)oc3c2)[C@H](O)[C@H](O)[C@H]1O: -8%
O=C1CCC[C@@H]2[C@H]3CCC[N@+]4([O-])CCC[C@@H](CN12)[C@@H]34: 14%
C[N+](C)(C)[C@@H](Cc1c[nH]c2ccccc12)C(=O)[O-]: 17%
CC(C)(C)OC(=O)N[C@H]1CCCCC/C=C\[C@@H]2C[C@@]2(C(=O)NS(=O)(=O)C2CC2)NC(=O)[C@@H]2C[C@@H](OC(=O)N3Cc4cccc(F)c4C3)CN2C1=O: -1%

Study 3
Target: High affinity nerve growth factor receptor (NTRK1, Homo sapiens, UniProt P04629)
Chain of UniProt P04629 (whole entry, looked up): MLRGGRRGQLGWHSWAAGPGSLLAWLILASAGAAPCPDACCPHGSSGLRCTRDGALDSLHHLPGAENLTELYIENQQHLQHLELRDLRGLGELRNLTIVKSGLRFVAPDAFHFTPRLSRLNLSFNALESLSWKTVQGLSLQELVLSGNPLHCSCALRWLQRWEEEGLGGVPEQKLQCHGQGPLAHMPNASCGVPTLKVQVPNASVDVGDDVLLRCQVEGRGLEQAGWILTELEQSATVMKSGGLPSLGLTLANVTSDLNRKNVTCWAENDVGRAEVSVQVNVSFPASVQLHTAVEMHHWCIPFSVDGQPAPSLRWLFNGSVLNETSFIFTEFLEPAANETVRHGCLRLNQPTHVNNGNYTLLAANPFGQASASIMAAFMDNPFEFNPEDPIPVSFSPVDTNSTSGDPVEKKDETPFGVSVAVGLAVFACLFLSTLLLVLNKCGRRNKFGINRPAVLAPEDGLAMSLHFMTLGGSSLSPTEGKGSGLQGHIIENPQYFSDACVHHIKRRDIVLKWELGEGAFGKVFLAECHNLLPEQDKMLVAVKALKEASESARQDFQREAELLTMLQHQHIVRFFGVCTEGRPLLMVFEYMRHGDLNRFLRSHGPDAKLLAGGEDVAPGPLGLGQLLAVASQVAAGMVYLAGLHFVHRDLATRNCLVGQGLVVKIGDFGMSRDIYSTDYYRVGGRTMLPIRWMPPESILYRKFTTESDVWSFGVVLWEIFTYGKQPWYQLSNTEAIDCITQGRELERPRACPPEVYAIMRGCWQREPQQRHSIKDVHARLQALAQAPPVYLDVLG
Observed: enzyme activity
Mode: inhibitor
Tested at: 0.5 µM
Reference: control
Quantity: remaining activity
O=C1NC(=O)C(c2cn(CCCn3ccnc3)c3ccccc23)=C1Nc1ccccc1: 104%
OCC(O)CCON=C1C(c2c(O)[nH]c3ccccc23)=Nc2ccccc21 (stereo not shown): 3.84%
Nc1ccc2ncnc(NCCc3ccc(Oc4ccccc4)cc3)c2c1: 108%
COc1cc2nccc(Oc3ccc(NC(=S)NC(=O)c4ccccc4C)cc3)c2cc1OC: 82.5%
CO[C@H]1C[C@@H]2CC[C@@H](C)[C@@](O)(O2)C(=O)C(=O)N2CCCC[C@H]2C(=O)O[C@H]([C@H](C)C[C@@H]2CC[C@@H](O)[C@H](OC)C2)CC(=O)[C@H](C)/C=C(\C)[C@@H](O)[C@@H](OC)C(=O)[C@H](C)C[C@H](C)/C=C/C=C/C=C/1C: 98.4%
CNC(=O)c1cc(Oc2ccc(NC(=O)Nc3ccc(Cl)c(C(F)(F)F)c3)cc2)ccn1: 76.1%
COc1ccc(C(=O)Nc2sc3c(c2C(N)=O)CCCC3)cc1OC: 104%
Cc1ccc(Nc2nccc(N(C)c3ccc4c(C)n(C)nc4c3)n2)cc1S(N)(=O)=O: 91.8%
CC(C)[C@H](CO)Nc1nc(Nc2cc(N)cc(Cl)c2)c2ncn(C(C)C)c2n1: 45.4%
Nc1[nH]nc2nc3ccccc3nc12: 88.3%
Cc1nc(-c2ccccc2)c(-c2ccncc2)o1: 94.3%
Nc1ncnc2n[nH]c(Nc3ccc(F)cc3)c12: 109%
Oc1ccc(-c2nc(-c3ccncc3)c(-c3ccc(F)cc3)[nH]2)cc1: 105%
O=C(CCCc1ccc(-c2ccccc2F)cc1)Nc1ccc(O)cc1: 103%
CN(C)c1ccc(C=C2C(=O)Nc3ccccc32)cc1: 96.6%

Study 4
Compound: C[C@H]1CC[C@H](n2c3cnccc3c3cnc(Nc4ccc5c(n4)CCN(C(=O)CO)C5)nc32)CC1
Observed: cell-free assay
Tested at: 1 µM
Quantity: remaining signal
Dual specificity mitogen-activated protein kinase kinase 7 (MAP2K7, Homo sapiens, UniProt O14733): 100%
Protein kinase C theta type (PRKCQ, Homo sapiens, UniProt Q04759): 86%
Serine/threonine-protein kinase Chk2 (CHEK2, Homo sapiens, UniProt O96017): 91%
Dual specificity protein kinase CLK4 (CLK4, Homo sapiens, UniProt Q9HAZ1): 1.4%
Receptor-type tyrosine-protein kinase FLT3 (FLT3, Homo sapiens, UniProt P36888, R834Q): 14%
MAP/microtubule affinity-regulating kinase 3 (MARK3, Homo sapiens, UniProt P27448): 74%
Proto-oncogene tyrosine-protein kinase ROS (ROS1, Homo sapiens, UniProt P08922): 100%

Excerpt of the above (study 3):
Cc1ccc(Nc2nccc(N(C)c3ccc4c(C)n(C)nc4c3)n2)cc1S(N)(=O)=O: 91.8%
CC(C)[C@H](CO)Nc1nc(Nc2cc(N)cc(Cl)c2)c2ncn(C(C)C)c2n1: 45.4%
Nc1[nH]nc2nc3ccccc3nc12: 88.3%
Cc1nc(-c2ccccc2)c(-c2ccncc2)o1: 94.3%
Nc1ncnc2n[nH]c(Nc3ccc(F)cc3)c12: 109%
Oc1ccc(-c2nc(-c3ccncc3)c(-c3ccc(F)cc3)[nH]2)cc1: 105%
